Measurements of several laboratories.
Lines come from different studies, so protocols differ. ± gives the spread as reported.
Organism: Staphylococcus aureus

| Compound | assay | test system | setting | how to read | measurement | value |
| --- | --- | --- | --- | --- | --- | --- |
| CC(=O)N[C@@H](Cc1c[nH]cn1)C(=O)N[C@@H](Cc1ccccc1)C(=O)N[C@@H](CCCNC(=N)N)C(=O)N[C@@H](Cc1c[nH]c2ccccc12)C(=O)NCC(=O)N[C@@H](CCCCN)C(=O)N1CCC[C@H]1C(=O)N[C@H](C(N)=O)C(C)C | calcein leakage flow cytometry | ATCC 33591 | 30 µM, 2 h, 37 °C |  | survival | 30 ± 4% |
| CC(=O)N[C@H]1CNC(=O)[C@H](Cc2ccccc2)NC(=O)[C@H](Cc2ccccc2)NC(=O)COCCOCCNC1=O | reporter gene | AH1872 | 10 µM | relative to: DMSO | AgrC activity | inactive |
| C[C@@H](c1ccccc1)N(CC(N)=O)C(=O)CN(C(=O)CN(CCCCN)C(=O)CN(C(=O)CN(C(=O)CN(CCCCN)C(=O)CN(C(=O)CN(C(=O)CN(CCCCN)C(=O)CN(C(=O)CN(C(=O)CNCCCCN)[C@@H](C)c1ccccc1)[C@@H](C)c1ccccc1)[C@@H](C)c1ccccc1)[C@@H](C)c1ccccc1)[C@@H](C)c1ccccc1)[C@@H](C)c1ccccc1)[C@@H](C)c1ccccc1 |  | USA300 LAC, mouse, abscess model | maximum tolerated dose, 1 h post infection |  | abscess size | 4.6 mm² |
| CCCCCCc1ccc(Oc2ccc(Oc3cccc(=O)[nH]3)cc2)c(O)c1 |  | RN4220 |  |  | concentration at maximal post-antibiotic effect | 4 x MIC |
| CCCCCCCCCCCCCC(=O)N[C@H](CCN)C(=O)N[C@@H]1C(=O)N[C@@H](CCN)C(=O)N[C@@H](CC(C)C)C(=O)N[C@@H](CCN)C(=O)N[C@H](Cc2ccccc2)C(=O)N[C@@H](CC(C)C)C(=O)N[C@@H](CCN)C(=O)N[C@H](CCN)C(=O)N[C@@H](C(C)C)C(=O)N[C@@H](CC(=O)O)C(=O)O[C@@H]1C |  | ATCC BAA-44, MRSA, neutropenic mice, thigh infection | subcutaneous, 20 mg/kg once daily | relative to: vehicle | reduction in bacterial burden | 1.79 log10 CFU |
| CC(C)C1=CC2=CCC3C(C)(C(=O)OCCC[N+](C)(C)C)CCCC3(C)C2CC1 (stereo not shown) |  | MRSA ATCC BAA-44, mouse red blood cells |  | relative to: HC50 over MIC | selectivity index | 8.2 |
| CC[C@@](C)(NC)C(=O)NC(C)(C)C(=O)NC(C)(C)C(=O)NC(C)(C)C(=O)NCC(=O)NC(C)(C)C(=O)N1CCC[C@@H]1C(=O)N[C@@H](Cc1c[nH]c2ccccc12)C(=O)NC(C)(C)C(=O)N1C[C@H](O)C[C@@H]1C(=O)N[C@@H](C)C(=O)NC(C)(C)C(=O)NCCCC(=O)N[C@@H](CC(C)C)C(=O)N[C@](C)(CC)C(=O)NC(C)(C)C(=O)N[C@](C)(CC)C(=O)N[C@H](CO)Cc1ccccc1 |  | ATCC 29213 | 1, 5, 10 µg/mL, 1 h, 37 °C |  | total ATP level | decreased |
| CC[C@H](C)[C@H](NC(=O)[C@H](CCCCN)NC(=O)[C@H](CCCCN)NC(=O)[C@H](Cc1c[nH]c2ccccc12)NC(=O)[C@H](CC(N)=O)NC(=O)[C@@H](NC(=O)COCCOCCOCCOCCOCCOCCOC(=O)NCCCCCCNC(=O)NCCCCCCNC(=O)Nc1nc(=O)cc(C)[nH]1)C(C)C)C(=O)N[C@@H](CC(C)C)C(=O)NCC(=O)N[C@@H](CCCCN)C(=O)N[C@H](C(=O)N[C@H](C(=O)N[C@@H](CCCCN)C(=O)N[C@H](C(=O)N[C@H](C(=O)N[C@@H](CCCCN)C(N)=O)C(C)C)C(C)C)[C@@H](C)CC)[C@@H](C)CC |  | MSSA RN 4220, RPMI medium | 24 h, 37 °C |  | LC99.9 | 7.5 µM |
| CC(C)C1=C(OC(=O)CCc2ccccc2)C(=O)C2=C(C=C[C@H]3C(C)(C)CCC[C@]23C)C1=O |  | ATCC 25923, MSSA |  |  | MBC | < 70 µM |
| CN1CC(=O)N=C1N.C[C@H](CCC(=O)O)[C@H]1CC[C@H]2[C@@H]3[C@@H](O)C[C@@H]4C[C@H](O)CC[C@]4(C)[C@H]3CC[C@]12C |  | TISTR 746 | 1 mg per disc, 18 to 24 h, 37 °C, 6 mm disc |  | inhibition zone diameter | 7.2 ± 0.2 mm |
| CCOC(=O)c1cnc(N/N=C/c2c(-c3ccc(Br)cc3)nc3ncccn23)s1 | microbial growth, well diffusion | ATCC23235 | 100 µg/mL |  | inhibition zone | 15 mm |
| CC[C@H](C)[C@H](NC(=O)[C@H](CCCCN)NC(=O)[C@H](CCCCN)NC(=O)[C@H](CC(C)C)NC(=O)[C@H](CCCCN)NC(=O)[C@H](CCC(=O)O)NC(=O)[C@H](CCCCN)NC(=O)[C@@H](NC(=O)[C@H](CCCCN)NC(=O)[C@H](CC(N)=O)NC(=O)[C@H](CCCNC(=N)N)NC(=O)[C@H](Cc1ccccc1)NC(=O)[C@H](CCCCN)NC(=O)[C@H](CCCNC(=N)N)NC(=O)[C@H](CC(C)C)NC(=O)[C@H](CCCNC(=N)N)NC(=O)[C@H](CCCCN)NC(=O)[C@H](CCCNC(=N)N)NC(=O)[C@H](CC(C)C)NC(=O)CN)[C@@H](C)CC)C(=O)NCC(=O)N[C@@H](CCC(N)=O)C(=O)N[C@@H](CCCCN)C(=O)N[C@H](C(=O)N[C@@H](CCC(N)=O)C(=O)NCC(=O)N[C@@H](Cc1ccccc1)C(=O)N[C@H](C(=O)N1CCC[C@H]1C(=O)N[C@@H](CCCCN)C(=O)N[C@@H](CC(C)C)C(=O)N[C@@H](C)C(=O)N1CCC[C@H]1C(=O)N[C@@H](CCCNC(=N)N)C(=O)N[C@H](C(=O)N[C@@H](CC(=O)O)C(=O)N[C@@H](Cc1ccc(O)cc1)C(=O)O)[C@@H](C)O)C(C)C)[C@@H](C)CC | inhibition zone | penicillin-resistant P1383 |  |  | lethal concentration | 1.19 µM |
| CCCCc1ccc(-c2nc(C)c(C(C)=NNC(=N)N)s2)cc1 |  | VRS4 VRSA |  |  | MBC | 1.3 µg/mL |
| C[C@H](NC(=O)[C@H](CCCCN)NC(=O)[C@H](CCCCN)NC(=O)[C@H](CCC(=O)O)NC(=O)[C@@H]1CCCN1)C(=O)N[C@@H](CCCCN)C(=O)N[C@@H](CCCCN)C(=O)N[C@@H](CCCCN)C(=O)O | OD600 | methicillin-resistant DMST 20646 | concentration not given, 18 to 22 h, 37 °C, unheated |  | growth inhibition | 29.4% |
| CC[C@H](C)[C@H](NC(=O)[C@H](CCCCN)NC(=O)[C@H](CCCCN)NC(=O)[C@H](CC(C)C)NC(=O)[C@H](CCCCN)NC(=O)[C@H](CCC(=O)O)NC(=O)[C@H](CCCCN)NC(=O)[C@@H](NC(=O)[C@H](CCCCN)NC(=O)[C@H](CC(N)=O)NC(=O)[C@H](CCCNC(=N)N)NC(=O)[C@H](Cc1ccccc1)NC(=O)[C@H](CCCCN)NC(=O)[C@H](CCCNC(=N)N)NC(=O)[C@H](CC(C)C)NC(=O)[C@H](CCCNC(=N)N)NC(=O)[C@H](CCCCN)NC(=O)[C@H](CCCNC(=N)N)NC(=O)[C@H](CC(C)C)NC(=O)[C@@H](N)CCCNC(=N)N)[C@@H](C)CC)C(=O)NCC(=O)N[C@@H](CCC(N)=O)C(=O)N[C@@H](CCCCN)C(=O)N[C@H](C(=O)N[C@@H](CCC(N)=O)C(=O)NCC(=O)N[C@@H](Cc1ccccc1)C(=O)N[C@H](C(=O)N1CCC[C@H]1C(=O)N[C@@H](CCCCN)C(=O)N[C@@H](CC(C)C)C(=O)N[C@@H](CCC(N)=O)C(=O)N1CCC[C@H]1C(=O)N[C@@H](CO)C(=O)N[C@@H](CCCCN)C(=O)N[C@@H](CCC(N)=O)C(=O)N[C@@H](CO)C(=O)O)C(C)C)[C@@H](C)CC | inhibition zone | MRSA P1374 |  |  | lethal concentration | 2.13 µM |
| CCCCCCCCCC(=O)N[C@@H](Cc1c[nH]c2ccccc12)C(=O)N[C@H](CC(N)=O)C(=O)N[C@@H](CC(=O)O)C(=O)N[C@@H]1C(=O)NCC(=O)N[C@@H](CCCNC(=O)OC2/C=C/CCCCC2)C(=O)N[C@@H](CC(=O)O)C(=O)N[C@H](C)C(=O)N[C@@H](CC(=O)O)C(=O)NCC(=O)N[C@H](CO)C(=O)N[C@@H]([C@H](C)CC(=O)O)C(=O)N[C@@H](CC(=O)c2ccccc2N)C(=O)O[C@@H]1C (stereo partly shown) |  | MRSA biofilm, porous glass beads | 24 h, 37 °C, UG gel |  | MBEC | > 256 µg/mL |
| CC[C@H](C)[C@H](NC(=O)[C@H](CCCCN)NC(=O)[C@H](CCCCN)NC(=O)[C@H](Cc1c[nH]c2ccccc12)NC(=O)[C@H](CC(N)=O)NC(=O)[C@@H](N)C(C)C)C(=O)N[C@@H](CC(C)C)C(=O)NCC(=O)N[C@@H](CCCCN)C(=O)N[C@H](C(=O)N[C@H](C(=O)N[C@@H](CCCCN)C(=O)N[C@H](C(=O)N[C@H](C(=O)N[C@@H](CCCCN)C(N)=O)C(C)C)C(C)C)[C@@H](C)CC)[C@@H](C)CC |  | MRSA AMC 201, RPMI medium | 24 h, 37 °C |  | LC99.9 | 3.7 µM |
| CC[C@H](C)[C@@H]1NC(=O)[C@H](CCC(N)=O)NC(=O)[C@H](CCCCN)NC(=O)[C@H](Cc2ccc(O)cc2)NC(=O)[C@H](CCCNC(=N)N)NC(=O)[C@H](CCCNC(=N)N)NC(=O)[C@@H]2CCCN2C(=O)[C@@H](NC(=O)[C@@H](N)Cc2ccccc2)CSSC[C@@H](C(=O)N[C@@H](CCCCN)C(=O)O)NC(=O)[C@H](CCCCN)NC(=O)[C@H]([C@@H](C)O)NC(=O)CNC(=O)[C@@H]2CCCN2C(=O)[C@H](CC(C)C)NC(=O)CNC(=O)[C@H]([C@@H](C)O)NC(=O)CNC1=O |  | ATCC 8530 | MBC, 2 h, pH 7.4, 37 °C, added: Escherichia coli K-235 LPS, peptide:LPS 1:5 w/w |  | antibacterial activity | inhibited |
| C=Cc1cc(OC)c2c(c1)c(=O)oc1c2cc(OC)c2c(O)ccc([C@@H]3O[C@H](C)[C@H](O)[C@@](C)(O)[C@H]3O)c21 |  | MRSA USA300, mouse epicutaneous infection | 1 mg/kg, day 6 |  | bacterial burden decrease | ~1.5 log10 per wound |
| CCCN1CCNC1=[S+][Ag-3]([O][N+](=O)[O-])([P+](c1ccccc1)(c1ccccc1)c1ccccc1)[P+](c1ccccc1)(c1ccccc1)c1ccccc1 |  | MTCC 740, DMSO | 0.1 mL of 50 mg/mL in 8 mm well, 18 to 24 h |  | inhibition zone diameter | 20 mm |
| ONCc1cc(C(F)(F)F)cc(C(F)(F)F)c1 |  |  | MIC, 72 h |  | biofilm reduction | ~50% |
| CN[C@H](CC(C)C)C(=O)N[C@H]1C(=O)N[C@@H](CC(N)=O)C(=O)N[C@H]2C(=O)N[C@H]3C(=O)N[C@H](C(=O)N[C@H](C(=O)NCCCCCC(=O)N[C@H](CCCNC(=N)N)C(=O)N[C@H](CCCNC(=N)N)C(=O)N[C@H](CCCNC(=N)N)C(=O)N[C@H](CCCNC(=N)N)C(=O)N[C@H](CCCNC(=N)N)C(=O)N[C@H](CCCNC(=N)N)C(=O)N[C@H](CCCNC(=N)N)C(=O)N[C@H](CCCNC(=N)N)C(N)=O)c4cc(O)cc(O)c4-c4cc3ccc4O)[C@H](O)c3ccc(c(Cl)c3)Oc3cc2cc(c3O[C@@H]2O[C@H](CO)[C@@H](O)[C@H](O)[C@H]2O[C@H]2C[C@](C)(N)[C@H](O)[C@H](C)O2)Oc2ccc(cc2Cl)[C@H]1O | SYTO/PI live-dead staining | MRSA USA400 MW2 | 80 µM, 5 h |  | viable biofilm bacteria | 8% |

Excerpt of the above:
| Compound | assay | test system | setting | how to read | measurement | value |
| --- | --- | --- | --- | --- | --- | --- |
| CC[C@H](C)[C@@H]1NC(=O)[C@H](CCC(N)=O)NC(=O)[C@H](CCCCN)NC(=O)[C@H](Cc2ccc(O)cc2)NC(=O)[C@H](CCCNC(=N)N)NC(=O)[C@H](CCCNC(=N)N)NC(=O)[C@@H]2CCCN2C(=O)[C@@H](NC(=O)[C@@H](N)Cc2ccccc2)CSSC[C@@H](C(=O)N[C@@H](CCCCN)C(=O)O)NC(=O)[C@H](CCCCN)NC(=O)[C@H]([C@@H](C)O)NC(=O)CNC(=O)[C@@H]2CCCN2C(=O)[C@H](CC(C)C)NC(=O)CNC(=O)[C@H]([C@@H](C)O)NC(=O)CNC1=O |  | ATCC 8530 | MBC, 2 h, pH 7.4, 37 °C, added: Escherichia coli K-235 LPS, peptide:LPS 1:5 w/w |  | antibacterial activity | inhibited |
| CC(C)C1=CC2=CCC3C(C)(C(=O)OCCC[N+](C)(C)C)CCCC3(C)C2CC1 (stereo not shown) |  | MRSA ATCC BAA-44, mouse red blood cells |  | relative to: HC50 over MIC | selectivity index | 8.2 |
| CCCCCCCCCCCCCC(=O)N[C@H](CCN)C(=O)N[C@@H]1C(=O)N[C@@H](CCN)C(=O)N[C@@H](CC(C)C)C(=O)N[C@@H](CCN)C(=O)N[C@H](Cc2ccccc2)C(=O)N[C@@H](CC(C)C)C(=O)N[C@@H](CCN)C(=O)N[C@H](CCN)C(=O)N[C@@H](C(C)C)C(=O)N[C@@H](CC(=O)O)C(=O)O[C@@H]1C |  | ATCC BAA-44, MRSA, neutropenic mice, thigh infection | subcutaneous, 20 mg/kg once daily | relative to: vehicle | reduction in bacterial burden | 1.79 log10 CFU |
